Measured values from different studies.
Parts stem from different laboratories: compare values within a part only. Positions count from the first letter of the parent shown.

Block 1 — technique: DHFR PCA, deep sequencing; matrix: yeast; together with: (+)-ABA 0.11 µM; baseline: wild-type fitted maximum; direction: higher = stronger binding; quantity: relative binding score
Target: ABI1, truncated, D143A, DHFR fusion (Arabidopsis thaliana)
Setting: methotrexate growth selection, single substitutions
Starting sequence: PYL1, truncated, DHFR fusion (Arabidopsis thaliana); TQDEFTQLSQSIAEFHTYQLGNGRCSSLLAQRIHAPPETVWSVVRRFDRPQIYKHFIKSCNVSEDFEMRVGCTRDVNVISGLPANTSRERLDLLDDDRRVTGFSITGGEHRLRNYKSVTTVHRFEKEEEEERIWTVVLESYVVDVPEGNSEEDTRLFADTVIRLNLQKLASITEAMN; partner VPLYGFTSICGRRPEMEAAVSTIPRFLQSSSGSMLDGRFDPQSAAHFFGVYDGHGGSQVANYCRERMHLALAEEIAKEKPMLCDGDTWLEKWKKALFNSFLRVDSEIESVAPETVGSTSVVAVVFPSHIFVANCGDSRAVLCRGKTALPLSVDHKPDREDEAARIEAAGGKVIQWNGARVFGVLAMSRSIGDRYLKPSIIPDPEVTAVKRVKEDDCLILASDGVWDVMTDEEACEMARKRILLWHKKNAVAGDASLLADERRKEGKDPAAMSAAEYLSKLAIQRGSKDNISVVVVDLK
N61Y: 35.9%
V136I: 39%
F47G: 0.704%
E4M: 27.2%
D159T: -8.68%
F56N: 5.07%
S104F: 0.889%
V121Y: -8.13%
F124T: 0.806%
R155I: 7.5%

Block 2 — target: CCND1, cyclin fold, Cln2 fusion (human); technique: yeast growth competition, sequencing; matrix: yeast; setting: weak parent motif; baseline: not given; direction: higher = stronger binding; quantity: normalised enrichment score
Starting sequence: PKMYT1 docking peptide (human); SFEPRNLLSLFED; partner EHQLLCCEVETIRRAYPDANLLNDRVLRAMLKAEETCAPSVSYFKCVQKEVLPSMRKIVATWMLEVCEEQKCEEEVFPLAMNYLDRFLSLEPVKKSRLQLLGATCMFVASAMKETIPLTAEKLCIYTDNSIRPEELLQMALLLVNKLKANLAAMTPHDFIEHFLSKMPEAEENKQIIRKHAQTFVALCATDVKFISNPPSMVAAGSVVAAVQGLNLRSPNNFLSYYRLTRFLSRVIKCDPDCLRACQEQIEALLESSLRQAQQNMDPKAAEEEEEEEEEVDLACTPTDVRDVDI
D13H: 0.435
L7I: 1.07
F11H: 1.69
R5I: 1.88
P4M: 1.64
P4I: -0.0198
L8H: 1.45
L10E: 1.54
D13M: 1.57
E3L: 0.685
L10M: 0.988
N6G: 1.58
L7Q: 0.861
E3N: 0.505

Block 3 — technique: RNA Bind-n-Seq; form: RNA; matrix: in vitro; tested at: 365 nM; baseline: no-protein control; direction: higher = stronger binding; quantity: RBNS enrichment (R)
Target: RNA binding protein fox-1 homolog 2, RRM domain, GST-SBP tag (RBFOX2, Homo sapiens, UniProt O43251-10, residues 100-194)
Setting: natural RNA segment, single round, ends assumed
Shared flanks, not repeated: GGGAGUUCUACAGUCCGACGAUC … UGGAAUUCUCGGGUGCCAA
UUUCCCAAAGACCCACACUAUGUAUCAGGAGCCUGCACCAUGCCAUUUGAAUGACCCUCAGCAAUGUGCCUCCCUGCCCUCAAAUUCCCAGUUGAUAACAGUGUUUGAUU: 6.96
GACAGACCUCAGCAAGGGUGUGAUUGAGGAGCCCAAGUACGCCUGCGCUUGCGUGGUGGAUCCAACACCAGCCCUGCGUCGUGGGACUUGCCUCAGAUCAGCCUGCGACU: 0.383
AUUAUUAUUAUUAUUUCCCCCUCCGUGCUCCCCACUUCUCUUGGCUCGCCCCCCCCCAAGUUGCCAGUGUUUCUGAAUGUCCUCGUGUCUGUGGUUGCGCUCCUUUCCCC: 0.845
CUGUUUUUCUAACUGAAAAGCUAAGGGCUUGAUUCCUAGCCCCGUUCUGUGGGGCACUGGGUGAUACUCAGUUUCUUGUUCCUGGCCGUGGAGAGGGGCCUGGGGCACUG: 0.521
UAUGCAGAGUGGAUAUCUGGGUGGGUUGGGCCACAAGAUUGGAUUUUGGUUCCACUUGGACAACAAACAGUAUUUGCAGAGUGAUUUCAGGAGAGAGCAGGUCUGAGGAA: 0.67
CCGCUCUGGCCAAGGGCUGUCUUCUGUGCACAUAGCUCAGGAGCCUGCAGCAGUUCCCUGUAUGGGUGGAUGUCCUCAGGGGCCAAGAAGAGAAGAAUGGGGACAACAGA: 0.629
GCUGGGGGCAGACACCCGAGUGUCUACGUAAGGUAGUAAAGUGGAAAUAGUCUUUGCUCAUUCUUGGGAUGCCUGAACGCUAGCUAAGCAUCUGAUAAACGCUGUGGAGA: 0.855
UAAAGUGACAGUGUAUCUAACAGUUGUUAGAGAACUCCCCAUUUCUGUUCCCCUGUGCUGUGUAUGGUCUGUGUUCCUCUGGUUUGAUUCCCUCUGGCGGUGGGGGAGGG: 3.65
GGACAGCCCCGCCAUGGCCACAGACUCUGUCCUCACCUUUGAUUGUCAGGAUGACAGCCCCCACCACCAUGAUGAGCGUCUGCAGGGCGUCCGUGUAGAUUACAGCAGCC: 0.746
AAUGAAUUUGUACUUUGAAAGGAAUGAUAUUGACACUAAAAUUUUAAACAUUUAAAUUUUUUCAUAAUCUUUCAUAAAGAAGUUUAAUAAUAGGUAUAUUAACUGAAUUU: 0.663
UUUUUAAACUUGGUAGAAAUGUCGGCAGCUGCUCUACACACAACUUCACUCAAGGCUUUGUUUCCAGAGGCCAGCUAGGCUGUCACAGGCAGGAAUCCCUUCCCAUCUGC: 0.605
GUAAUAUAACAAUAUAUGAUAUAUAAACCUUAAAUGAAAAAAAUGAUCUAUUGCAGAUAUUUGAUGUAGUUUUCUUUUUUAAAUUAAUCAGAAACCCCACUUCCAUUGUA: 0.792

Single results of other studies
PhoQ, residues 284 288 289 292 302 303 TYGVAM  fold induction (PhoP, residues 12 14 15 18 19 QWHVF (Escherichia coli, UniProt P23836); Sort-seq, refers to: YFP reporter; E. coli; PhoQ-PhoP variant library, together with: 10 µM Mg2+; baseline: high Mg2+ state, higher = stronger signaling): 4.33

For quick reference, copied from above (block 3):
GCUGGGGGCAGACACCCGAGUGUCUACGUAAGGUAGUAAAGUGGAAAUAGUCUUUGCUCAUUCUUGGGAUGCCUGAACGCUAGCUAAGCAUCUGAUAAACGCUGUGGAGA: 0.855
UAAAGUGACAGUGUAUCUAACAGUUGUUAGAGAACUCCCCAUUUCUGUUCCCCUGUGCUGUGUAUGGUCUGUGUUCCUCUGGUUUGAUUCCCUCUGGCGGUGGGGGAGGG: 3.65
GGACAGCCCCGCCAUGGCCACAGACUCUGUCCUCACCUUUGAUUGUCAGGAUGACAGCCCCCACCACCAUGAUGAGCGUCUGCAGGGCGUCCGUGUAGAUUACAGCAGCC: 0.746
AAUGAAUUUGUACUUUGAAAGGAAUGAUAUUGACACUAAAAUUUUAAACAUUUAAAUUUUUUCAUAAUCUUUCAUAAAGAAGUUUAAUAAUAGGUAUAUUAACUGAAUUU: 0.663
